Published values pooled from the literature.
± marks the error that the study gave.
Medium: plasma

| Structure (SMILES) | host | route | dose | time | notes | together with | AUC(0-inf) |
| --- | --- | --- | --- | --- | --- | --- | --- |
| NC(=O)c1cnc2[nH]ccc2c1NC1C2CC3CC1CC(OS(=O)(=O)O)(C3)C2 (centres unmarked) | Japanese adults, mild hepatic impairment | oral | 150 mg single dose |  | fasting, Child-Pugh A |  | 4390 ng·h/mL |
| O=C(O)c1cccc(S(=O)(=O)Nc2ccccc2)c1 | patients with mild liver dysfunction | intravenous | 400 mg/m^2 belinostat |  | single 30 min infusion, cycle 1 day -7, mean |  | 15300 ng·h/mL |
| CN1CCN(c2cc(-c3ccccc3CO)c(N(C)C(=O)C(C)(C)c3cc(C(F)(F)F)cc(C(F)(F)F)c3)cn2)CC1 | healthy volunteers | oral | dose not given |  | netupitant-palonosetron, standard dissolution capsule |  | 4050 ng·h/mL |
| Cn1cc(C(N)=O)c(NC2C3CC4CC2CC(O)(C4)C3)c2ccnc1-2 (centres unmarked) | Japanese adults, normal hepatic function | oral | 150 mg single dose |  | fasting |  | 357 ng·h/mL |
| O=C(O)/C=C/c1cccc(S(=O)(=O)Nc2ccccc2)c1 | patients with severe liver dysfunction | intravenous | 400 mg/m^2 belinostat |  | single 30 min infusion, cycle 1 day -7, mean |  | 12300 ng·h/mL |
| Cc1ccccc1-c1cc(N2CCNCC2)ncc1N(C)C(=O)C(C)(C)c1cc(C(F)(F)F)cc(C(F)(F)F)c1 | healthy volunteers | oral | dose not given |  |  |  | 4940 to 6700 ng·h/mL |
| CC(C)(Sc1ccncc1-c1ccc(C#N)c2ccccc12)C(=O)OC1OC(C(=O)O)C(O)C(O)C1O (centres unmarked) |  | oral | 15 mg |  | moderate renal impairment, fasted |  | 727 ng·h/mL |
| CONC(=O)/C=C/c1cccc(S(=O)(=O)Nc2ccccc2)c1 | patients with normal liver function | intravenous | 400 mg/m^2 belinostat |  | single 30 min infusion, cycle 1 day -7, mean |  | 5900 ng·h/mL |
| Cc1ccccc1-c1cc(N2CC[N+](C)([O-])CC2)ncc1N(C)C(=O)C(C)(C)c1cc(C(F)(F)F)cc(C(F)(F)F)c1 | healthy volunteers | oral | dose not given |  |  |  | 1710 to 2250 ng·h/mL |
| CC(C)(Sc1cc[n+]([O-])cc1-c1ccc(C#N)c2ccccc12)C(=O)OC1OC(C(=O)O)C(O)C(O)C1O (centres unmarked) |  | oral | 15 mg |  | moderate renal impairment, fasted |  | 601 ng·h/mL |
| Cn1cc(C(N)=O)c(NC2C3CC4CC2CC(OS(=O)(=O)O)(C4)C3)c2ccnc1-2 (centres unmarked) | Japanese adults, mild hepatic impairment | oral | 150 mg single dose |  | fasting, Child-Pugh A |  | 888 ng·h/mL |
| CC(C)[C@H](NC(=O)CNC(=O)[C@H](CCC(N)=O)NC(=O)[C@H](C)N)C(=O)O | healthy volunteers, LPS endotoxaemia | intravenous | 45 mg/kg/h | 2 h infusion | geometric mean | LPS 2 ng/kg | 6520 ng·h/mL |
| NC(=O)/C=C/c1cccc(S(=O)(=O)Nc2ccccc2)c1 | patients with severe liver dysfunction | intravenous | 400 mg/m^2 belinostat |  | single 30 min infusion, cycle 1 day -7, mean |  | 21600 ng·h/mL |
| COc1cc(C)c(Cc2ccc(O)cc2)cc1[C@@H]1S[C@H](CO)[C@@H](O)[C@H](O)[C@H]1O | Japanese T2DM patients |  | 2.5 mg luseogliflozin | day 1 | once daily |  | 140 ± 31.3 ng·h/mL |

A few entries again:
| Structure (SMILES) | host | route | dose | time | notes | together with | AUC(0-inf) |
| --- | --- | --- | --- | --- | --- | --- | --- |
| CN1CCN(c2cc(-c3ccccc3CO)c(N(C)C(=O)C(C)(C)c3cc(C(F)(F)F)cc(C(F)(F)F)c3)cn2)CC1 | healthy volunteers | oral | dose not given |  | netupitant-palonosetron, standard dissolution capsule |  | 4050 ng·h/mL |
| Cn1cc(C(N)=O)c(NC2C3CC4CC2CC(O)(C4)C3)c2ccnc1-2 (centres unmarked) | Japanese adults, normal hepatic function | oral | 150 mg single dose |  | fasting |  | 357 ng·h/mL |
